Published values pooled from the literature.
Numbered parts are unrelated; each lists some results of a single study. Positions count from the first letter of the parent shown.

Study 1 — method: DHFR PCA, deep sequencing; medium: yeast; added: (+)-ABA 4.8 µM; baseline: wild-type fitted maximum; direction: higher = stronger binding
Target: ABI1, truncated, D143A, DHFR fusion (Arabidopsis thaliana)
Setting: methotrexate growth selection, single substitutions
Starting sequence: PYL1, truncated, DHFR fusion (Arabidopsis thaliana); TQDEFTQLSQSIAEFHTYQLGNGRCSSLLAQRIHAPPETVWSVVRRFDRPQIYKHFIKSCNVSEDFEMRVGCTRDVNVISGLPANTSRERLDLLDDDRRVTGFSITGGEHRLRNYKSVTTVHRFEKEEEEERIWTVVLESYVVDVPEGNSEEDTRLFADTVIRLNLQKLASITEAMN
Change	relative binding score [%]
D97V	72.4
P36R	57.2
T1I	78
R74F	0.61
Q2F	78.3
Q167F	29.2
T119C	49.5
D153L	-6.39
N85W	70.6
E128Q	73.9
R88G	-2.6
E38M	20.1
A175K	84.1
E4L	73.1
R88K	76.7
K168A	55.4
P37A	59.1
E4N	54.6
E129F	66.2
R99K	87.3
L169Q	0.449

Study 2 — target: CCND1, cyclin fold, Cln2 fusion (human); method: yeast growth competition, sequencing; medium: yeast; setting: strong parent motif; baseline: not given; direction: higher = stronger binding
Starting sequence: SCAPER docking peptide (human); SNARRSLNFGGST
Change	normalised enrichment score
SIARRSLNFGGST [N2I]	0.767
NNARRSLNFGGST [S1N]	0.591
SNAERSLNFGGST [R4E]	0.152
SNARASLNFGGST [R5A]	-0.154
SNARRSLNFDGST [G10D]	1.07
SNARRSSNFGGST [L7S]	-0.0106
SNARRSLNFYGST [G10Y]	0.778
SNARRSLNFQGST [G10Q]	0.605
SNARRSLNFVGST [G10V]	-0.44
SNATRSLNFGGST [R4T]	0.774
SNARRSLNFHGST [G10H]	0.275
SNARCSLNFGGST [R5C]	0.305
SNARRSLNFGGSH [T13H]	0.555
SNARNSLNFGGST [R5N]	0.119
SNARRSLNFGGVT [S12V]	0.829
ENARRSLNFGGST [S1E]	-0.134
MNARRSLNFGGST [S1M]	0.466
SNARRSLNRGGST [F9R]	-0.00943
SNARRSKNFGGST [L7K]	0.239
SNARRYLNFGGST [S6Y]	1.03
SNARRSLNFGGSF [T13F]	0.868
SNARRSLNFGGSK [T13K]	0.906
SNKRRSLNFGGST [A3K]	0.375
SNARESLNFGGST [R5E]	0.904
SNARRQLNFGGST [S6Q]	2.42

Study 3 — method: protein-binding microarray; form: double-stranded DNA, one strand shown; medium: in vitro; tested at: 940 nM top; setting: 60-bp whole probe; added: salmon DNA 0.4 mg/ml; baseline: random background probes; direction: higher = stronger binding; constant ends, left off below: GCCTAGCAC … GTCTTGATTCGCTTGACGCTGCTG
Target: Interferon regulatory factor 5, full length, phosphomimetic (IRF5, Homo sapiens, UniProt Q13568-2, residues 1-514, S451D/S453D/S456D/S462D)
Sequence	fitted relative affinity
GACGGATTCCTTTTCCTGACGTGCTAG	0.275 z-score
TTAGATTTCAGTATCGATTAGTGCTAG	5.81 z-score
GACCGTTTCCTTTTCCTGACGTGCTAG	1.61 z-score
TTAGGTATCGACACTGGGTAAGTGCTA	4.72 z-score
CCCTTTCTCTCTGTGACACAGTGCTAG	2.13 z-score
ATGTTTTTCATTGTTTTTCAGTGCTAG	1.31 z-score
TTAGGTATCGGGTTTAGGTTAGTGCTA	5.52 z-score
TCACACTCCAGTCTGGGACTGTGCTAG	0.198 z-score
GACGATCTCGGTATCGAGACGTGCTAG	2.72 z-score
GAGGATCTCAGTATCGAGACGTGCTAG	1.59 z-score
GACGGTCTCGGTCTCGGGACGTGCTAG	3.86 z-score
TTAGATTTCGGGACTGTATTAGTGCTA	0.53 z-score
TTTCCCATGAGTCTCAAAATGTGCTAG	0.995 z-score
TAAGATATCAGACTGGATTAGTGCTAG	-0.57 z-score
GACGGTCTCCTTTTCGTGACGTGCTAG	0.671 z-score
TTAGAATTGAGTATCGATTAGTGCTAG	4.94 z-score
TTAGATTTCAGTCTCTATTAGTGCTAG	1.78 z-score
GCTCATTTTTTTTGCAAGCTGTGCTAG	0.684 z-score

Other studies, line by line
Molecule	target	assay	system	setting	scale	endpoint	value
PhoQ, residues 284 288 289 292 302 303 SIHMAM	PhoP, residues 12 14 15 18 19 HEGLL (Escherichia coli, UniProt P23836)	Sort-seq, measured: YFP reporter	E. coli	PhoQ-PhoP variant library, added: 10 µM Mg2+	baseline: high Mg2+ state, higher = stronger signaling	fold induction	12

For quick reference, copied from above (study 1):
Change	relative binding score [%]
R88G	-2.6
E38M	20.1
A175K	84.1
E4L	73.1
R88K	76.7
K168A	55.4
P37A	59.1
E4N	54.6
